Measurements of several laboratories.
Protocols differ between the studies behind these lines. ± gives the spread as reported.
Glutamate receptor ionotropic, kainate 1: Glutamate receptor ionotropic, kainate 1 (Rattus norvegicus, UniProt P22756)
MAPK8: Mitogen-activated protein kinase 8 (MAPK8, Homo sapiens, UniProt P45983)
FOLH1: Glutamate carboxypeptidase 2 (FOLH1, Homo sapiens, UniProt Q04609)
PRKCA: Protein kinase C alpha type (PRKCA, Homo sapiens, UniProt P17252)
Sigmar1: Sigma non-opioid intracellular receptor 1 (Sigmar1, Rattus norvegicus, UniProt Q9R0C9)
Cd1d1 dimeric Ig fusion: Cd1d1, dimeric Ig fusion (Mus musculus, UniProt P11609)
Pick1 PDZ domain: PRKCA-binding protein, PDZ domain (Pick1, Rattus norvegicus, UniProt Q9EP80)
MAPK14: Mitogen-activated protein kinase 14 (MAPK14, Homo sapiens, UniProt Q16539)

Amino acid sequences for entries named in this document (tags omitted). A change or cut given only in a name is not applied to a line headed by its entry. Residues count along the entry.
UniProt P22756, 31-920 isoform 4 limits assumed: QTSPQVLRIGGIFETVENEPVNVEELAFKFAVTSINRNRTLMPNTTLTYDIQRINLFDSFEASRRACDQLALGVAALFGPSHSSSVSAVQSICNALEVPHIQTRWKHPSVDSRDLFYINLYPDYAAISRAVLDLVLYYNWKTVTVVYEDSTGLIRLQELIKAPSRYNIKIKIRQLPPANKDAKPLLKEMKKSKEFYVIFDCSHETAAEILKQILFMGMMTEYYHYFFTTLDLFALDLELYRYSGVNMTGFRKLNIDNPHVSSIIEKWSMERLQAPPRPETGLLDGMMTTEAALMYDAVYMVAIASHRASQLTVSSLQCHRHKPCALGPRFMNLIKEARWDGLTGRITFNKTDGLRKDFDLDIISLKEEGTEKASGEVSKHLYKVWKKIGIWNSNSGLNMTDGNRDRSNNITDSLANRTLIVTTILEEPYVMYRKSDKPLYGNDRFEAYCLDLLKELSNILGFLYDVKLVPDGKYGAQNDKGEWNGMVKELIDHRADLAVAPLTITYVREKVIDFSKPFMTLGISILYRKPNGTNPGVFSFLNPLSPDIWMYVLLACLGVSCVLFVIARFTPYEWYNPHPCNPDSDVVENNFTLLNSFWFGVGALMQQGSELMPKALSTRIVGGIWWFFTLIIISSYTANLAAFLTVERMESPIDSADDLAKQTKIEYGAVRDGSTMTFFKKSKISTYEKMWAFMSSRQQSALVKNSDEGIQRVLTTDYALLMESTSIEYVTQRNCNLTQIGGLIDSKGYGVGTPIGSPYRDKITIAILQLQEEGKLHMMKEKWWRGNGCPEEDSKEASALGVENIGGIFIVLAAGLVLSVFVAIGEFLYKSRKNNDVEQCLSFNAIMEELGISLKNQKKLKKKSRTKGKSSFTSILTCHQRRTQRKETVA
UniProt P45983, whole entry: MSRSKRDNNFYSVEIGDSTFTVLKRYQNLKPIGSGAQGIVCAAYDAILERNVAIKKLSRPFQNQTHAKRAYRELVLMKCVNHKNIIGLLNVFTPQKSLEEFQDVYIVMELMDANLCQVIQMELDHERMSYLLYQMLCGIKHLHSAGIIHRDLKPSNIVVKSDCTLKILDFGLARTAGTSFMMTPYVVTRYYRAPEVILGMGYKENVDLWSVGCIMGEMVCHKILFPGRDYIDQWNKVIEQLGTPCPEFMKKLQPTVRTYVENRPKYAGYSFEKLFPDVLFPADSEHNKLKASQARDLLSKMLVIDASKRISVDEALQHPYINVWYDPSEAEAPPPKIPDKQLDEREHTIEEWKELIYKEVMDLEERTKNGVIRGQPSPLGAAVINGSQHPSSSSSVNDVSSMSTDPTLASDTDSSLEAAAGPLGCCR
UniProt P45983, 1-384 isoform 3: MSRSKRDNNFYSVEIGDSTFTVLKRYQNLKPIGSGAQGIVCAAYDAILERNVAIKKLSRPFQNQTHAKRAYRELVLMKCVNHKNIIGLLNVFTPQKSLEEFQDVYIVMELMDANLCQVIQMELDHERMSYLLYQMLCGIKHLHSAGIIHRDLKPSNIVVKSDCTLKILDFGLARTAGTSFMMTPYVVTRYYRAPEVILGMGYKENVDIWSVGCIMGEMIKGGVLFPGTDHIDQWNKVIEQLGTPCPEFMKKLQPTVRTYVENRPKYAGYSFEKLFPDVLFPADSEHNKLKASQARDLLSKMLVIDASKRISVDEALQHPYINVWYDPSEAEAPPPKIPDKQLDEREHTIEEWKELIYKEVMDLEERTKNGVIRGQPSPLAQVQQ
UniProt Q04609, whole entry: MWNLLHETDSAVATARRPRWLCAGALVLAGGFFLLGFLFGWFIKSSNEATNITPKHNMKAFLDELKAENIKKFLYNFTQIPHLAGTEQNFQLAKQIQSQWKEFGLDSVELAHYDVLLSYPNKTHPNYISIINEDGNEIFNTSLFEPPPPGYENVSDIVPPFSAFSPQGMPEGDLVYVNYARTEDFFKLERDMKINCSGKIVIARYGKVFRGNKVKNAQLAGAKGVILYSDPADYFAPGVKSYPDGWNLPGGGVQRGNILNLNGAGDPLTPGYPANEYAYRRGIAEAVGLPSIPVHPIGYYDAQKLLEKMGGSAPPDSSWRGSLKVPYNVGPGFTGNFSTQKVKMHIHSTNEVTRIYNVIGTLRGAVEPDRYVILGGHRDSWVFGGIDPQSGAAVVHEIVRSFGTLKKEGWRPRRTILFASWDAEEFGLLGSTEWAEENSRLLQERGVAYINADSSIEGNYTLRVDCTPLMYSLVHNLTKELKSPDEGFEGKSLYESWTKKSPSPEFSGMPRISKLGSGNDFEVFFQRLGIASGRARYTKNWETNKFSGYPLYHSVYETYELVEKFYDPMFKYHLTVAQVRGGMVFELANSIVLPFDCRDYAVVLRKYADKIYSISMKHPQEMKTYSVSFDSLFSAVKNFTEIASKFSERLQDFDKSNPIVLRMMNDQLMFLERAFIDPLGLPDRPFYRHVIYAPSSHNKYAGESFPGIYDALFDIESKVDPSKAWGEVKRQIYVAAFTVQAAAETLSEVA
UniProt Q9R0C9, whole entry: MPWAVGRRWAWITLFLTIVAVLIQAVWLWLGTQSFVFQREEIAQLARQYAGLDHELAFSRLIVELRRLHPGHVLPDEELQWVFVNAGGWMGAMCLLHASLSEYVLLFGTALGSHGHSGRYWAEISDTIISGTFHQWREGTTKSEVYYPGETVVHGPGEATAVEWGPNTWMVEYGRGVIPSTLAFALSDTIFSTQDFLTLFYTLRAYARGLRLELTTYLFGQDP
UniProt Q9EP80, whole entry: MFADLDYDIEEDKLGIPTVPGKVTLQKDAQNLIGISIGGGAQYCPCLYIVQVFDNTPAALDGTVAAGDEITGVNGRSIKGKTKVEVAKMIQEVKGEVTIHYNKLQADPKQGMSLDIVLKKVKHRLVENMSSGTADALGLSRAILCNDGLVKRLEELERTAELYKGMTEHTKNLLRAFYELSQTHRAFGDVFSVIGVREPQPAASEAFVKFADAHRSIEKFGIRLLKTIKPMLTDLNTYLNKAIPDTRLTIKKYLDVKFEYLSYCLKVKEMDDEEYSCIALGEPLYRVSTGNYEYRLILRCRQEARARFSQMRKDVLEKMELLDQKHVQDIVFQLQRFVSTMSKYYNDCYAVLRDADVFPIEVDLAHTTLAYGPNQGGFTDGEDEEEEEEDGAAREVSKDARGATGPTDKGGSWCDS
UniProt Q16539, whole entry: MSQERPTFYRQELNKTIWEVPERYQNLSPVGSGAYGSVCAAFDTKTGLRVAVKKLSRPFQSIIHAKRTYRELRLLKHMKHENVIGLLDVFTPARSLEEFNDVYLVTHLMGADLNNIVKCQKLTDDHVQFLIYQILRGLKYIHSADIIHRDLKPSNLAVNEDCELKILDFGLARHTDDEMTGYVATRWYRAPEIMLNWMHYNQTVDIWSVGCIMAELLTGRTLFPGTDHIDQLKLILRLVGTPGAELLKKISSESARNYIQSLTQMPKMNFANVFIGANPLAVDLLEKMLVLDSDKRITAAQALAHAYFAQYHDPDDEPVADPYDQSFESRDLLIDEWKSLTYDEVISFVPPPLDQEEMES
UniProt Q9U419, whole entry: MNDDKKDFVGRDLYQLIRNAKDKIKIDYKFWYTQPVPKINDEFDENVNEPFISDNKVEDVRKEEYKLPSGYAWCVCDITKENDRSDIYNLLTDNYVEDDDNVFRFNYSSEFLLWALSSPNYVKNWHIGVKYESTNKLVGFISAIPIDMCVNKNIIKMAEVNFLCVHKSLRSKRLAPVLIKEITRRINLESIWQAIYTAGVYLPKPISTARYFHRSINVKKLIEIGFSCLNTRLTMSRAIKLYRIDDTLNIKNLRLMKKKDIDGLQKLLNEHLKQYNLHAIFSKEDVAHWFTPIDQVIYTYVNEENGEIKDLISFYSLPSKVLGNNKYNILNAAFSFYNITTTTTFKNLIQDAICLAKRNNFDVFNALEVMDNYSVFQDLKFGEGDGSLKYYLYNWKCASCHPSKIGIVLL
UniProt Q9NSY1, 38-345 limits assumed: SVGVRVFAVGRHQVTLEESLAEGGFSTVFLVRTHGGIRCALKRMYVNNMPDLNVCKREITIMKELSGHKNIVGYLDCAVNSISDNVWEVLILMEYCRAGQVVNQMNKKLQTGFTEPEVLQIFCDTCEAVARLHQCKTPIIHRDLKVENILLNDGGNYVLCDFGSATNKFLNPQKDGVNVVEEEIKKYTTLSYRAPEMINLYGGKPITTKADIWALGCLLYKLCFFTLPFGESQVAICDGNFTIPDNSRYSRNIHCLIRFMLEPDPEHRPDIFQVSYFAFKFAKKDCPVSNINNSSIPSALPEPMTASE
UniProt Q07440, whole entry P104K/C113S, looked up: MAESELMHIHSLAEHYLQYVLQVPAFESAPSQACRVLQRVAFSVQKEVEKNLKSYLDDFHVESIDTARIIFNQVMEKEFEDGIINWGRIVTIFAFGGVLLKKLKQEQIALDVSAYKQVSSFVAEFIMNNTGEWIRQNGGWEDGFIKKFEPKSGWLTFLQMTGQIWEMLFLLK
UniProt Q9EPX4, whole entry: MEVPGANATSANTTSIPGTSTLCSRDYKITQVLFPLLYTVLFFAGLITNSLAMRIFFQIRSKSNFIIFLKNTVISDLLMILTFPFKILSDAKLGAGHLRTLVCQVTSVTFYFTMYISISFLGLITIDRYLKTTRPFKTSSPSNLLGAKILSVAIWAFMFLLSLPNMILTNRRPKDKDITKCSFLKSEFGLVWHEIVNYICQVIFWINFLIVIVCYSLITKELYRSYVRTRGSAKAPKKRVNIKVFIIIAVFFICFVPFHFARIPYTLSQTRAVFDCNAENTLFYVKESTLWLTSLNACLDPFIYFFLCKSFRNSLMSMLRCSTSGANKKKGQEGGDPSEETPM
UniProt P30542, whole entry: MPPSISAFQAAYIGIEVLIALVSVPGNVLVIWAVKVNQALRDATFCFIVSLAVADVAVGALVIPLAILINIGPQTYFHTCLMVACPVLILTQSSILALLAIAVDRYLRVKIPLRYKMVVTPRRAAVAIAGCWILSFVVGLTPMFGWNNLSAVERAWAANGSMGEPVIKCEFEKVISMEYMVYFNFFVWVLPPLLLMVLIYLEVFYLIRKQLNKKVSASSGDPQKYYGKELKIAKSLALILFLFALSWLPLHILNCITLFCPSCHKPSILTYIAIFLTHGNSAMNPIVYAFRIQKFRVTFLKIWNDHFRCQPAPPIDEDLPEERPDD
UniProt P07384, whole entry: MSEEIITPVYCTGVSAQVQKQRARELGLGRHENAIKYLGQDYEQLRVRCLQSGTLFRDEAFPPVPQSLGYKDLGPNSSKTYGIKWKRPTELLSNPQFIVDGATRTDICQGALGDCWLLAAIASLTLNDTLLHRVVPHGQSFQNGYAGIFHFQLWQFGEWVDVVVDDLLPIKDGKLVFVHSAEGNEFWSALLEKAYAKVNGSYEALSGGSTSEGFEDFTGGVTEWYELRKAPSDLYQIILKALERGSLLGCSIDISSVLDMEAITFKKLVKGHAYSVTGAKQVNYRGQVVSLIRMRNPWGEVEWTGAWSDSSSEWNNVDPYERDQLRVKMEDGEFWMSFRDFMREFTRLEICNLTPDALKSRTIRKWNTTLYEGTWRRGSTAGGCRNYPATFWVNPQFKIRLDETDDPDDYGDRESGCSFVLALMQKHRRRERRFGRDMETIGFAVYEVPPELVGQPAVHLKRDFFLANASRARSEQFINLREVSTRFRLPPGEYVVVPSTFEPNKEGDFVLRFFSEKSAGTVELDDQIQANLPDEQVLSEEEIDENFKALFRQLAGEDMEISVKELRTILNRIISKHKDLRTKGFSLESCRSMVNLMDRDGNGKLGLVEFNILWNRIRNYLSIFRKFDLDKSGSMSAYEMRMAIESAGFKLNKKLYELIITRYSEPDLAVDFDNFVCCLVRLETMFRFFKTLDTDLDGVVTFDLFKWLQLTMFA
UniProt P29275, whole entry: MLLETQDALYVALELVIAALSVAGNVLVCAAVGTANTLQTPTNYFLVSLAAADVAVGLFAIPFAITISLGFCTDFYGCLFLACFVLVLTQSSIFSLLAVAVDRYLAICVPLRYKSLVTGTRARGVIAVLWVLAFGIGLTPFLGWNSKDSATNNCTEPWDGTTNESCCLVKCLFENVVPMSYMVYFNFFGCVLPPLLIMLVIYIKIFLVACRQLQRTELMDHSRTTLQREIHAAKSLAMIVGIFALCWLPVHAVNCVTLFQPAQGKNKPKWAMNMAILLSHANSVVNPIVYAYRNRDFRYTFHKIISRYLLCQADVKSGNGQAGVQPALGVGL
UniProt P30419, whole entry: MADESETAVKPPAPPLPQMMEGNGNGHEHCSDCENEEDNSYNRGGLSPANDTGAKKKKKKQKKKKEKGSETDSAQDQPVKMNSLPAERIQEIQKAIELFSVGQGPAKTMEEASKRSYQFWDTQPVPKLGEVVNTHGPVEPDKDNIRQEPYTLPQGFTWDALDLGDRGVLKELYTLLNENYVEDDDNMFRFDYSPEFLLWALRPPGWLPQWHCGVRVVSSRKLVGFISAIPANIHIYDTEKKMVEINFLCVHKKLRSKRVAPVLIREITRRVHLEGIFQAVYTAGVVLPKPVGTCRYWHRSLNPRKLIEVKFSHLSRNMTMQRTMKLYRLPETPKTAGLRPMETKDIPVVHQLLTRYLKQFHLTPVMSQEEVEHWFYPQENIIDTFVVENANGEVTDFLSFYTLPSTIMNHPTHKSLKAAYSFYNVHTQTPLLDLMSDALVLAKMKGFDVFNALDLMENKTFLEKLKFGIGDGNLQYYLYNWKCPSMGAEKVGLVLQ

With C[C@H](NC(=O)c1cc(C(=O)O)cc([C@H]2CCN[C@@H]2C(=O)O)c1)C(=O)O the Ki was 13.3 ± 0.5 µM (Glutamate receptor ionotropic, kainate 1; binding, radioligand binding; Sf9 membranes; homomeric receptor, together with: [3H]SYM2081).
CN(C)c1ccc(C#CCOC(=O)[C@@]2(C)C=C(C(=O)OC(C)(C)C)C(=O)CC2)cc1 gave a Ki of 2.4 ± 0.9 µM (MAPK8; D-peptide displacement, fluorescence polarization).
The Ki of O=C(O)CNC(=O)c1cc(C(=O)O)cc([C@H]2CCN[C@@H]2C(=O)O)c1 is reported as 22.3 ± 6 µM (Glutamate receptor ionotropic, kainate 3 (Rattus norvegicus, UniProt P42264); binding, radioligand binding; Sf9 membranes; homomeric receptor, together with: [3H]kainate).
The Ki of COC(=O)C1(C)C=C(C(=O)NCC(C)(C)O)C(=O)CC1 (centres unmarked) is reported as greater than 200 µM (MAPK8; D-peptide displacement, fluorescence polarization).
The Ki of CC1(C)C(=CC=CC=CC=CC2=[N+](CCCCS(=O)(=O)[O-])c3ccc4ccccc4c3C2(C)C)N(CCCCCC(=O)NCCCC[C@H](NC(=O)N[C@@H](CCC(=O)O)C(=O)O)C(=O)O)c2ccc3ccccc3c21 is reported as 0.0007 ± 1e-05 µM (FOLH1; enzyme activity, inhibitor; compound in DMSO, together with: [3H]NAAG 30 nM).
O=C(OCc1ccccc1)c1ccccc1OC1CCNCC1 gave a Ki of greater than 100 µM (Glycylpeptide N-tetradecanoyltransferase (Plasmodium falciparum, UniProt Q9U419); enzyme activity, inhibitor, CPM fluorescence; together with: substrate 4.0 µM).
CCCCCCCCC(CCCCCCC=CCCCCCCC(CCCCCCCC)C(=O)OCC1(CO)CC(=C(C)C)C(=O)O1)C(=O)OCC1(CO)CC(=C(C)C)C(=O)O1 (racemic) has a Ki of 0.0485 ± 0.0063 µM (PRKCA; binding, [3H]PDBu competition; together with: phosphatidylserine 100 µg/mL).
With COC(=O)C1(c2ccccc2)C=C(C(=O)OC(C)(C)C)C(=O)CC1 (centres unmarked) the Ki was 18.8 ± 3.9 µM (MAPK8; docking peptide binding, competitive inhibitor, fluorescence polarization; together with: labelled JIP1 peptide).
For COc1cc(Nc2ccnc3cc(-c4ccncc4)ccc23)cc(OC)c1OC, the Ki was 8.6 µM (BMP2K (Homo sapiens, UniProt Q9NSY1)).
For COc1ccccc1N=Nc1c(O)ccc2cc(S(=O)(=O)O)ccc12, the Ki was greater than 20.3 µM (Bcl-2-related protein A1 (Mus musculus, UniProt Q07440, C113S/P104K); binding, inhibitor, fluorescence polarization; together with: FITC-labelled Noxa peptide).
FC(F)(F)c1ccc2c(c1)CC/C2=N\OCCCN1CCCCC1 gave a Ki of 0.0307 ± 0.00223 µM (Sigmar1; radioligand binding; rat).
The Ki of CCCc1cc2c(N3CCn4c(nnc4C(F)(F)F)C3)nc(OCCF)nc2s1 [isotope labelled] is reported as 0.0245 ± 0.0093 µM (P2Y purinoceptor 12 (P2ry12, Rattus norvegicus, UniProt Q9EPX4); binding, antagonist, competitive displacement; rat, membranes).
For CCCCCCCCC(CCCC=CCCCC(CCCCCCCC)C(=O)OCC1(CO)CC(=C(C)C)C(=O)O1)C(=O)OCC1(CO)CC(=C(C)C)C(=O)O1 (racemic), the Ki was 0.00117 ± 5e-05 µM (Protein kinase C delta type, C1b domain (Prkcd, Mus musculus, UniProt P28867); binding, [3H]PDBu competition; 5 min, 37 °C, together with: phosphatidylserine 100 µg/mL).
For CC(C)[C@H](NC(=O)c1cc(C(=O)O)cc([C@H]2CCN[C@@H]2C(=O)O)c1)C(=O)O, the Ki was 4.41 ± 0.63 µM (Glutamate receptor ionotropic, kainate 1; binding, radioligand binding; Sf9 membranes; homomeric receptor, together with: [3H]SYM2081).
For CCCCCCCCC(CCCCCCCC=CCCCCCCCC(CCCCCCCC)C(=O)OCC1(CO)CC(=C(C)C)C(=O)O1)C(=O)OCC1(CO)CC(=C(C)C)C(=O)O1 (racemic), the Ki was 0.173 ± 0.017 µM (PRKCA; binding, [3H]PDBu competition; together with: phosphatidylserine 100 µg/mL).
CCOC(=O)c1[nH]c2cc(Cl)ccc2c1C(C(=O)NCc1ccccc1)N(CC(C)C)C(C)=O (centres unmarked) gave a Ki of 4 µM (MDM2 (Homo sapiens, UniProt Q00987); binding, fluorescence polarization).
With CCCCCCCCCCCCCC[C@@H](O)[C@@H](O)[C@H](CO[C@H]1O[C@H](CO)[C@H](O)[C@H](O)[C@H]1O)NC(=O)CCCCCCCCCCc1ccc(F)cc1 the Ki was 0.27 ± 0.08 µM (Cd1d1 dimeric Ig fusion; binding, competitive microarray binding; together with: printed glycolipid 100 µM).
O[C@@H](c1ccc(F)cc1)C(F)(F)CCN1CCC(O)(c2ccc(Cl)cc2)CC1 (racemic) gave a Ki of 23.7 ± 3.71 µM (D(2) dopamine receptor, long isoform (DRD2, Homo sapiens, UniProt P14416)).
For CCOC(=O)NC(=O)/C(C#N)=C/c1ccc(OC)cc1, the Ki was 89 ± 20 µM (Pick1 PDZ domain; binding, fluorescence polarization; together with: labelled hDAT C-terminal peptide).
The Ki of Cc1cccc(CSc2nc(N)c(C#N)c(-c3cccc(F)c3)c2C#N)n1 is reported as 0.016 ± 0.0046 µM (ADORA1 (Homo sapiens, UniProt P30542); radioligand competition binding; HEK293 membranes; 1 h, 25 °C, together with: [3H]DPCPX 0.5 nM).
The Ki of O=C(O)c1cc(C(=O)N2CCC[C@H]2C(=O)O)cc([C@H]2CCN[C@@H]2C(=O)O)c1 is reported as 1.1 µM (NMDA receptor (rat); binding, radioligand binding; rat cortical synaptosomes; together with: [3H]CGP39653).
For COC(=O)[C@]1(C)C=C(C(=O)OCc2ccccc2)C(=O)CC1, the Ki was 5.5 ± 0.6 µM (MAPK14; D-peptide displacement, fluorescence polarization).
CCOC(=O)NC(=O)/C(C#N)=C/c1ccc(Cl)c(C(F)(F)F)c1 has a Ki of 7.2 ± 0.7 µM (Pick1 PDZ domain; binding, fluorescence polarization; together with: labelled hDAT C-terminal peptide).
The Ki of COc1c(Br)cc(/C=N/NC(=O)CNc2ccc(Cl)cc2)c(O)c1Br is reported as 25 to 50 µM (CFTR (Homo sapiens, UniProt P13569); apical chloride current, inhibitor; FRT cells expressing CFTR; basolateral membrane permeabilised).
COc1ccc(CN(C)CCO/N=C(\C)c2ccc(C(F)(F)F)cc2)cc1 gave a Ki of 0.0382 ± 0.00238 µM (Sigmar1; radioligand binding; rat).
CCCCCCCCCCCCCC[C@@H](O)[C@@H](O)[C@H](CO[C@H]1O[C@H](CO)[C@H](O)[C@H](O)[C@H]1O)NC(=O)CCCCCCCCCc1ccccc1 gave a Ki of 4.3 ± 1.2 µM (Cd1d1 dimeric Ig fusion; binding, competitive microarray binding; together with: printed glycolipid 100 µM).
The Ki of CCOC(=O)C1(C)C=CC(=O)C(C(=O)OC)=C1 (centres unmarked) is reported as greater than 200 µM (MAPK8; docking peptide binding, competitive inhibitor, fluorescence polarization; together with: labelled JIP1 peptide).
The Ki of CCCCCCCCC(CCCCC=CCCCCC(CCCCCCCC)C(=O)OCC1(CO)CC(=C(C)C)C(=O)O1)C(=O)OCC1(CO)CC(=C(C)C)C(=O)O1 (racemic) is reported as 0.00631 ± 0.0013 µM (PRKCD (Homo sapiens, UniProt Q05655); binding, [3H]PDBu competition; together with: phosphatidylserine 100 µg/mL).
COC(=O)C1(C)C=C(C(=O)NC(C)(C)C)C(=O)CC1 (centres unmarked) has a Ki of 74.7 ± 14 µM (MAPK14; D-peptide displacement, fluorescence polarization).
CCC(NC(=O)C(CC(C)C)NC(=O)Cc1ccncc1)C(=O)C(=O)NCc1cc(OC)cc(OC)c1 (centres unmarked) has a Ki of 0.063 ± 0.016 µM (CAPN1 (Homo sapiens, UniProt P07384); enzyme activity, inhibitor, Suc-Leu-Tyr-AMC hydrolysis; purified enzyme).
For CCOC(=O)NC(=O)/C(C#N)=C/c1ccc(Cl)c([N+](=O)[O-])c1, the Ki was 22 ± 6.1 µM (Pick1 PDZ domain; binding, fluorescence polarization; together with: labelled hDAT C-terminal peptide).
For N=C(N)NCCC[C@H](NC(=O)c1cc(C(=O)O)cc([C@H]2CCN[C@@H]2C(=O)O)c1)C(=O)O, the Ki was 2.65 ± 1.06 µM (Glutamate receptor ionotropic, kainate 1; binding, radioligand binding; Sf9 membranes; homomeric receptor, together with: [3H]SYM2081).
For O=C1OC2CC1N(C(=O)c1cc(Cc3n[nH]c(=O)c4ccccc34)ccc1F)C2 (centres unmarked), the Ki was 0.00549 ± 0.00168 µM (PARP1 (Homo sapiens, UniProt P09874); tracer displacement; cells).
For O=C(Nc1cccc(F)c1)c1cc(S(=O)(=O)N2CCOCC2)c(Cl)cc1Cl, the Ki was 0.0146 µM (Autotaxin (ENPP2, Homo sapiens, UniProt Q13822); enzyme activity; together with: FS-3).
With CC(C)(C)OC(=O)C1=C[C@](C)(C(=O)OCC#Cc2ccncc2)CCC1=O the Ki was 2.9 ± 1.1 µM (MAPK8; D-peptide displacement, fluorescence polarization).
CC[N+]1=C(C=CC=CC=C2N(CCCCCC(=O)NCCCCC(NC(=O)CCCCCCC(=O)NCCCC[C@H](NC(=O)N[C@@H](CCC(=O)O)C(=O)O)C(=O)O)C(=O)O)c3ccc4c(S(=O)(=O)O)cc(S(=O)(=O)O)cc4c3C2(C)C)C(C)(C)c2c1ccc1c(S(=O)(=O)O)cc(S(=O)(=O)[O-])cc21 (some centres unmarked) has a Ki of 5e-05 ± 2e-06 µM (FOLH1; enzyme activity, inhibitor; compound in water, together with: [3H]NAAG 30 nM).
Cc1cc(NC(=O)c2cccc(NC(=O)C3=CC(C)(C)CCC3=O)c2)ccc1Nc1nccc(-c2cccnc2)n1 gave a Ki of 0.081 µM (MAPK8; SPR two-step reversible model).
The Ki of N#Cc1c(N)nc(SCc2ncc[nH]2)c(C#N)c1-c1cccc(O)c1 is reported as 0.004 ± 0.0019 µM (ADORA2B (Homo sapiens, UniProt P29275); radioligand displacement; HEK293 membranes; together with: 25 nM [3H]NECA).
Cc1ncsc1-c1ccc(CNC(=O)[C@@H]2C[C@@H](O)CN2C(=O)c2cccc(C#N)c2)cc1 gave a Ki of 8.1 µM (von Hippel-Lindau disease tumor suppressor, with elongin B, C (VHL, Homo sapiens, UniProt P40337); inhibitor, fluorescence polarization; VHL-elonginB-elonginC complex; 1% DMSO, together with: FAM-DEALA-Hyp-YIPD peptide).
O=C(O)c1cc(C(=O)N[C@@H](Cc2ccc(O)cc2)C(=O)O)cc([C@H]2CCN[C@@H]2C(=O)O)c1 has a Ki of 0.96 µM (NMDA receptor (rat); binding, radioligand binding; rat cortical synaptosomes; together with: [3H]CGP39653).
For O=C(OCc1ccccc1)c1cccc(OC2CCNCC2)c1, the Ki was greater than 100 µM (NMT1 (Homo sapiens, UniProt P30419); enzyme activity, inhibitor, CPM fluorescence).

For quick reference, copied from above:
For CCCCCCCCC(CCCCCCCC=CCCCCCCCC(CCCCCCCC)C(=O)OCC1(CO)CC(=C(C)C)C(=O)O1)C(=O)OCC1(CO)CC(=C(C)C)C(=O)O1 (racemic), the Ki was 0.173 ± 0.017 µM (PRKCA; binding, [3H]PDBu competition; together with: phosphatidylserine 100 µg/mL).
CCOC(=O)c1[nH]c2cc(Cl)ccc2c1C(C(=O)NCc1ccccc1)N(CC(C)C)C(C)=O (centres unmarked) gave a Ki of 4 µM (MDM2 (Homo sapiens, UniProt Q00987); binding, fluorescence polarization).
With CCCCCCCCCCCCCC[C@@H](O)[C@@H](O)[C@H](CO[C@H]1O[C@H](CO)[C@H](O)[C@H](O)[C@H]1O)NC(=O)CCCCCCCCCCc1ccc(F)cc1 the Ki was 0.27 ± 0.08 µM (Cd1d1 dimeric Ig fusion; binding, competitive microarray binding; together with: printed glycolipid 100 µM).
O[C@@H](c1ccc(F)cc1)C(F)(F)CCN1CCC(O)(c2ccc(Cl)cc2)CC1 (racemic) gave a Ki of 23.7 ± 3.71 µM (D(2) dopamine receptor, long isoform (DRD2, Homo sapiens, UniProt P14416)).
For CCOC(=O)NC(=O)/C(C#N)=C/c1ccc(OC)cc1, the Ki was 89 ± 20 µM (Pick1 PDZ domain; binding, fluorescence polarization; together with: labelled hDAT C-terminal peptide).
The Ki of Cc1cccc(CSc2nc(N)c(C#N)c(-c3cccc(F)c3)c2C#N)n1 is reported as 0.016 ± 0.0046 µM (ADORA1 (Homo sapiens, UniProt P30542); radioligand competition binding; HEK293 membranes; 1 h, 25 °C, together with: [3H]DPCPX 0.5 nM).
